Experimental data from different studies.
Numbered parts are unrelated; each lists some results of a single study. “And” joins repeats or separate records; there may be more than shown.
UniProt Q9UHD2, sequence (whole entry, looked up): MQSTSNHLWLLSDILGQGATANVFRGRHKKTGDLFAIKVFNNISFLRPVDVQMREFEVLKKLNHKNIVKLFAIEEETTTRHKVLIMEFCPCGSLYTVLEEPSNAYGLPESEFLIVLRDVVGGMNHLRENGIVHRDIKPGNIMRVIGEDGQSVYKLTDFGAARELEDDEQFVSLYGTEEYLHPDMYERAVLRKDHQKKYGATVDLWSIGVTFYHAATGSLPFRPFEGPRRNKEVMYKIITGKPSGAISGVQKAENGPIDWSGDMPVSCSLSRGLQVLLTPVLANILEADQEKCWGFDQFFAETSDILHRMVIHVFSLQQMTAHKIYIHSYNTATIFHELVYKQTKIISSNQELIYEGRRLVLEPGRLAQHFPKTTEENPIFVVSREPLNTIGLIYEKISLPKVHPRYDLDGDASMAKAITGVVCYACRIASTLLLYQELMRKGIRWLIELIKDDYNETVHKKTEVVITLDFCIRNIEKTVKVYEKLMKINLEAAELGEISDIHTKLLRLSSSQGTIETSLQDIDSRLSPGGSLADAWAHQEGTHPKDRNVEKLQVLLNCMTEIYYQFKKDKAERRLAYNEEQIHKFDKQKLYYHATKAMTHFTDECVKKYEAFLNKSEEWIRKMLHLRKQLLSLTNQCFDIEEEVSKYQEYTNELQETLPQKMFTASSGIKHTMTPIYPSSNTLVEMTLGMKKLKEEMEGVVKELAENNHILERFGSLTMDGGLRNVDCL
UniProt P49674, sequence (whole entry, looked up): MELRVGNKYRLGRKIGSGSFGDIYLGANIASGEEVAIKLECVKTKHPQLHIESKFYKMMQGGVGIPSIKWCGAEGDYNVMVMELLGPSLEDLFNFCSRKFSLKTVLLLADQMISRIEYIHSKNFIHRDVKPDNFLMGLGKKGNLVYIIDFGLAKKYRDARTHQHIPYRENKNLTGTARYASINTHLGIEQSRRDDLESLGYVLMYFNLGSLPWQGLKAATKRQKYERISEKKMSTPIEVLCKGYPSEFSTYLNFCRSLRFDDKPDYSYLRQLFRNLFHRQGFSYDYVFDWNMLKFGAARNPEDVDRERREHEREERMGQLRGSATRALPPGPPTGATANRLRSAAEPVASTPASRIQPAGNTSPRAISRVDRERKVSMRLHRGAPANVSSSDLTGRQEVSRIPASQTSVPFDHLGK
UniProt Q9H0K1, sequence (whole entry, looked up): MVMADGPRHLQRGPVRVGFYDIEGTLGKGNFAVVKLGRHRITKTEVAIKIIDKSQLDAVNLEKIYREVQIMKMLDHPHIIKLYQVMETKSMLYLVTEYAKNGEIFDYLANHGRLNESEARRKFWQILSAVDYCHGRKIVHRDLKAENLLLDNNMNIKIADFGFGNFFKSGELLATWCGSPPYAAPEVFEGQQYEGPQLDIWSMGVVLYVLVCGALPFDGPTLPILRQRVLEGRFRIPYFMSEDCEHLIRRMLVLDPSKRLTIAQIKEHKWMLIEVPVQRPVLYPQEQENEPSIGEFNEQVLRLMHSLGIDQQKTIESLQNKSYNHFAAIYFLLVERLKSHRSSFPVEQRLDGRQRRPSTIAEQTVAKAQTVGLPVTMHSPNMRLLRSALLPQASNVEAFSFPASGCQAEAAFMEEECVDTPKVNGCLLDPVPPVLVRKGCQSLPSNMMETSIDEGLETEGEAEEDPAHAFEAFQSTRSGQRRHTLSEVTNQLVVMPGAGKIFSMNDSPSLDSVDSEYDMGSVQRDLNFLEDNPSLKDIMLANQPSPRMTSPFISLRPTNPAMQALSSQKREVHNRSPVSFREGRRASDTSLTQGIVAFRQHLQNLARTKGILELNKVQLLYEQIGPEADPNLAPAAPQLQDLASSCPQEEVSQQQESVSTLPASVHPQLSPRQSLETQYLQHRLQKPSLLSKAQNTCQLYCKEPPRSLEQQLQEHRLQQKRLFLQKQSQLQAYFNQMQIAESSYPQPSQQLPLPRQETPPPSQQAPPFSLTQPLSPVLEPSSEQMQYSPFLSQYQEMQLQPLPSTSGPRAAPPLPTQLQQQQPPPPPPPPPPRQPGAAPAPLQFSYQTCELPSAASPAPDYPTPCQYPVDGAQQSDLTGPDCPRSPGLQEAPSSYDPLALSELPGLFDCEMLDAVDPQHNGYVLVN
UniProt Q9UPZ9, sequence (whole entry, looked up): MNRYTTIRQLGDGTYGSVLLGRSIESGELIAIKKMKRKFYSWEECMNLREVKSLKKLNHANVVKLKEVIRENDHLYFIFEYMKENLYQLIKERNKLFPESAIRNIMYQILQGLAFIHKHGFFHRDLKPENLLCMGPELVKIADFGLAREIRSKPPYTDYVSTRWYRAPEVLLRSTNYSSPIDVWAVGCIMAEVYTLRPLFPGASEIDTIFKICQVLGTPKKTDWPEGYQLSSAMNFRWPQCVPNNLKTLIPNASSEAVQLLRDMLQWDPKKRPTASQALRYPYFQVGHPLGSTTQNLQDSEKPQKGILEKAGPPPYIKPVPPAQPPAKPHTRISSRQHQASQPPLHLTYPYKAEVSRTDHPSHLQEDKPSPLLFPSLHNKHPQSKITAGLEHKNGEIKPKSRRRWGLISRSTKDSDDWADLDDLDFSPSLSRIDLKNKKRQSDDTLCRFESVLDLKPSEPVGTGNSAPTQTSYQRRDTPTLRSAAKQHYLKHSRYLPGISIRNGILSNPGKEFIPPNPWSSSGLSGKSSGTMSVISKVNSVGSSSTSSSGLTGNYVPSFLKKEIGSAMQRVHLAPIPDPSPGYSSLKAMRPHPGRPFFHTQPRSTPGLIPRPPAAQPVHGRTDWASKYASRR
UniProt Q9HAZ1, sequence (whole entry, looked up): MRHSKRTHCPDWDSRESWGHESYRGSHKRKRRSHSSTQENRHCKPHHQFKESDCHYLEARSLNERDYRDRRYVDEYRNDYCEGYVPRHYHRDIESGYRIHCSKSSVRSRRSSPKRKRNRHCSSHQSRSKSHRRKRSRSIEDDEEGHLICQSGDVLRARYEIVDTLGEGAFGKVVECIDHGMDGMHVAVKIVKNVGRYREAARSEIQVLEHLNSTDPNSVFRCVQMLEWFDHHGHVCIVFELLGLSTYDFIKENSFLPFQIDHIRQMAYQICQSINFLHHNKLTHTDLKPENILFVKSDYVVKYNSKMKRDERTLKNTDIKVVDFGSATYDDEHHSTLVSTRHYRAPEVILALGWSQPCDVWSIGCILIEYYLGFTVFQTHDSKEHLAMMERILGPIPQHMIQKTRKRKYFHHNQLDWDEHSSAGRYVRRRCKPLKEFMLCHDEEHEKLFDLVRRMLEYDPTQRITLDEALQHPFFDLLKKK
UniProt Q86Y07, sequence (whole entry, looked up): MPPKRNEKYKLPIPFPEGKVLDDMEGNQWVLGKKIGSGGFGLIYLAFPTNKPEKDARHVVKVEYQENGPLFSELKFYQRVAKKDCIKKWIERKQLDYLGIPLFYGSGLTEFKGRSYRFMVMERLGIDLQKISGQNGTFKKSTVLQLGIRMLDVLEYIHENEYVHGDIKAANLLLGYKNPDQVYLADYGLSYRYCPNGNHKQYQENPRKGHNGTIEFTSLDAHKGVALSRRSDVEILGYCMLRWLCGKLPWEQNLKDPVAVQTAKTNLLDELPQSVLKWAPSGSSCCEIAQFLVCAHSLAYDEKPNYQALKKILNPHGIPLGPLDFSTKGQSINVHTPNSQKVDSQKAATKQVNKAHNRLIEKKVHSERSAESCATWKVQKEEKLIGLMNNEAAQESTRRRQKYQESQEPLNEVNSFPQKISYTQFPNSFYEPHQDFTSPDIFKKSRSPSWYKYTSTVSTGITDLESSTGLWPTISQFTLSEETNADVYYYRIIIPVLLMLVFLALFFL

Series 1
SMILES: COc1cc(C(=O)N2CCC(N3CCN(C)CC3)CC2)ccc1Nc1ncc2c(n1)N(C)c1ccccc1C(=O)N2C
Dual specificity mitogen-activated protein kinase kinase 7 (Map2k7, Mus musculus, UniProt Q8CE90); probe labelling, KiNativ, refers to: DVkPSNILLDER peptide, Lys2 site; brain tissue lysate (mouse); 1 µM, with: ADP acyl-phosphate probe — inhibition: -6%.
The inhibition was 0.3% (human PBMC; probe labeling, inhibitor, KiNativ profiling, refers to: DIkPDNLLLDSK; cell lysate; 1 µM, LYS2 site, with: ATP acyl-phosphate probe).
The inhibition was 11.1% (mouse NEK9; probe labelling, KiNativ ATP probe; mouse brain lysate; 1 µM, activation loop LGDYGLAkK).
YSK1 (mouse); KiNativ ADP probe; mouse brain tissue; 0.1 µM, probe site Lys1 — inhibition: -21.2%.
It gave -0.5% for inhibition (NDR2 (mouse); probe labelling, KiNativ, refers to: DTGHIYAMkILR peptide, LYS1 site; brain tissue lysate (mouse); 0.1 µM, with: ADP acyl-phosphate probe).
For MINK (mouse); probe labelling, inhibitor, KiNativ ActivX ATP probe; mouse brain lysate; 0.1 µM, Lys1 site peptide: inhibition read 3%.
It gave 13.2% for inhibition (CaMKK2 (mouse); probe labelling, KiNativ, refers to: Lys1 site peptide; brain tissue lysate (mouse); 0.1 µM, with: ADP acyl-phosphate probe).
For ABL and ARG (mouse); probe labelling, KiNativ, refers to: Lys1 site peptide; brain tissue lysate (mouse); 0.1 µM, with: ADP acyl-phosphate probe: inhibition read 27%.
It gave 10.2% for inhibition (PI4KA human; KiNativ profiling; human PBMC lysate; concentration not given, ATP probe, ATP site).

Series 2
Compound: O=C(NCc1ncc(C(F)(F)F)cc1Cl)c1ccc2c(c1)C1(CCS(=O)(=O)CC1)[C@@H](C1CC1)N2S(=O)(=O)c1ccc(F)cc1
Observed: cell-free assay
Technique: competition with immobilised ligand
Concentration: 1 µM
It gave 100% for remaining binding (WNK4 (Homo sapiens, UniProt Q96J92)).
For TAOK2 (Homo sapiens, UniProt Q9UL54): remaining binding read 64%.
For EGFR (Homo sapiens, UniProt P00533, L858R/T790M): remaining binding read 75%.
The remaining binding was 100% (CSNK1E (Homo sapiens, UniProt P49674)).
For CLK4 (Homo sapiens, UniProt Q9HAZ1): remaining binding read 100%.
It gave 100% for remaining binding (STK36 (Homo sapiens, UniProt Q9NRP7)).
It gave 98% for remaining binding (VRK2 (Homo sapiens, UniProt Q86Y07)).
For CILK1 (Homo sapiens, UniProt Q9UPZ9): remaining binding read 97%.
TBK1 (Homo sapiens, UniProt Q9UHD2) — remaining binding: 84%.
FLT3 (Homo sapiens, UniProt P36888, ITD) — remaining binding: 79%.
The remaining binding was 100% (SIK2 (Homo sapiens, UniProt Q9H0K1)).

Series 3
Cell line: HaCaT
Concentration: 100 µM
Time: 36 h
For `COc1ccc2cc3[n+](cc2c1OC)CCc1cc2c(cc1-3)OCO2`, the viability was 30%.
With `O=C1[C@H](CC[C@H](O)c2ccc(F)cc2)[C@@H](c2ccc(O)cc2)N1c1ccc(F)cc1` the viability was 5.59%.
`CN1CCN(c2c(F)cc3c(=O)c(C(=O)O)cn(CCF)c3c2F)CC1` has a viability of 87.5%.
`C[C@H](Cn1cnc2c(N)ncnc21)OCP(=O)(O)O` has a viability of 93.1%.
For `CCC[C@H](N[C@@H](C)C(=O)N1[C@H](C(=O)O)C[C@@H]2CCCC[C@@H]21)C(=O)OCC`, the viability was 97.5%.
`CC#C[C@]1(O)CC[C@H]2[C@@H]3CCC4=CC(=O)CCC4=C3[C@@H](c3ccc(N(C)C)cc3)C[C@@]21C` gave a viability of 19.7%.
With `CNC1CCCN(c2c(F)cc3c(=O)c(C(=O)O)cn(C4CC4)c3c2OC)C1` (stereo not drawn) the viability was 82.7%.
The viability of `O=C(OC1C[C@@H]2CC3C[C@H](C1)N2CC3=O)c1c[nH]c2ccccc12` (stereo partly drawn) is reported as 40.4%.
`CC(=O)[C@@]1(O)CC[C@H]2[C@@H]3CCC4=CC(=O)CC[C@]4(C)[C@H]3CC[C@@]21C` has a viability of 89.1%.

Series 4
Compound: CC(=O)N[C@@H](Cc1c[nH]c2ccccc12)C(=O)N[C@@H](CCC(=O)C=[N+]=[N-])C(=O)OC(C)C
Technique: flow cytometry
Host: mice bearing MC38-OVA tumours
Medium: tumour-infiltrating CD8+ T cells
Dose: dose not given
For refers to: PD-1+ LAG-3+ cells; reference: CD8+ TILs: cell fraction read 23% and 21.3% and 26.7% and 29.2%.
refers to: CD62L+ CD8+ cells; reference: CD8+ TILs — cell fraction: 25.7% and 30.1% and 25.9% and 28.3%.
For refers to: TCF1+ CD8+ cells; reference: CD8+ TILs: cell fraction read 11.8% and 23.7% and 19.4% and 24.2% and 14.2% and 11.2% and 14.6% and 21.6%.
The cell fraction was 26.2% and 37.2% and 40.5% and 47.7% and 20.8% and 17% and 35.3% and 17.3% (refers to: TCF1+ CD8+ cells; reference: OVA-tetramer+ CD8+ TILs).
